Assay results collected from several papers.
Compare with care: the assays were run in different laboratories. Values joined by “and” are separate records of one study, mostly repeats; a detail may differ. ± gives the spread as reported.
B1: interferon gamma; sequence looked up; chain QDPYVKEAENLKKYFNAGHSDVADNGTLFLGILKNWKEESDRKIMQSQIVSFYFKLFKNFKDDQSIQKSVETIKEDMNVKFFNSNKKKRDDFEKLTNYSVTDLNVQRKAIHELIQVMAELSPAAKTGKRKRSQMLFRG
B2: STAT1 (human); sequence looked up; chain SQWYELQQLDSKFLEQVHQLYDDSFPMEIRQYLAQWLEKQDWEHAANDVSFATIRFHDLLSQLDDQYSRFSLENNFLLQHNIRKSKRNLQDNFQEDPIQMSMIIYSCLKEERKILENAQRFNQAQSGNIQSTVMLDKQKELDSKVRNVKDKVMCIEHEIKSLEDLQDEYDFKCKTLQNREHETNGVAKSDQKQEQLLLKKMYLMLDNKRKEVVHKIIELLNVTELTQNALINDELVEWKRRQQSACIGGPPNACLDQLQNWFTIVAESLQQVRQQLKKLEELEQKYTYEHDPITKNKQVLWDRTFSLFQQLIQSSFVVERQPCMPTHPQRPLVLKTGVQFTVKLRLLVKLQELNYNLKVKVLFDKDVNERNTVKGFRKFNILGTHTKVMNMEESTNGSLAAEFRHLQLKEQKNAGTRTNEGPLIVTEELHSLSFETQLCQPGLVIDLETTSLPVVVISNVSQLPSGWASILWYNMLVAEPRNLSFFLTPPCARWAQLSEVLSWQFSSVTKRGLNVDQLNMLGEKLLGPNASPDGLIPWTRFCKENINDKNFPFWLWIESILELIKKHLLPLWNDGCIMGFISKERERALLKDQQPGTFLLRFSESSREGAITFTWVERSQNGGEPDFHAVEPYTKKELSAVTFPDIIRNYKVMAAENIPENPLKYLYPNIDKDHAFGKYYSRPKEAPEPMELDGPKGTGYIKTELISVSEVHPSRLQTTDNLLPMSPEEFDEVSRIVGSVEFDSMMNTV
B3: recombinant human GDNF; sequence looked up; chain SPDKQMAVLPRRERNRQAAAANPENSRGKGRRGQRGKNRGCVLTAIHLNVTDLGLGYETKEELIFRYCSGSCDAAETTYDKILKNLSRNRRLVSDKVGQACCRPIAFDDDLSFLDDNLVYHILRKHSAKRCGCI

| Molecule | tested on | test | system | setting | how to read | measurement | result |
| --- | --- | --- | --- | --- | --- | --- | --- |
| human E-Syt1 | CYB5R4 knockout human cells | PP4 interaction, 3xFLAG-PP4C IP-MS |  | concentration not given | baseline: CYB5R4 KO over parental | log2 fold change | -0.61 |
| cotadutide |  | metabolomics, refers to: hepatic proline | ob/ob mice on AMLN diet, NASH model, liver | dose not given |  | metabolite level | 1.02 ± 0.06 scaled intensity |
| liraglutide |  |  | Wistar rat, female, diet-induced obese | subcutaneous, dose not given, 4 weeks treatment |  | body weight | 556 ± 46 g |
| heparin sodium |  |  | human | intravenous infusion, 8 IU/kg/h, day 1 to 6 | baseline: baseline | AUEC of PT ratio | 137 |
| difelikefalin |  |  | Japanese haemodialysis patients with pruritus | intravenous, 0.25 µg/kg, 8 weeks |  | PGIC minimally worse | 0% |
| B1 (interferon gamma) |  | proteinuria inducer | FVB mice | dose not given, 72 h |  | urine albumin/creatinine ratio | 12.4 and 10.9 and 32.3 and 24.3 and 137 and 13.8 and 55.7 and 20.3 |
| B2 (STAT1) | PP6C (human) | co-immunoprecipitation, IP-MS | CYB5R4 knockout cells | concentration not given | baseline: CYB5R4 knockout over parental | log2 fold change | 1.85 |
| B3 (recombinant human GDNF) |  | cell counting on sections, refers to: tyrosine hydroxylase | rat, 6-OHDA lesion model, substantia nigra pars compacta, intact side | 3 µg/24 h |  | TH-immunoreactive cell count | 1270 ± 89.4 |
| semaglutide |  |  | Wistar rat, male, diet-induced obese | subcutaneous, increasing doses once daily, 45 days | baseline: vehicle | body weight reduction | -14.7% |
| maraviroc |  | Western blot, refers to: GSK-3β phospho-Ser9 | mice, NSG hu-PBL, HIV-infected, frontal cortex | i.p., 120 mg/kg twice daily, 3 weeks post infection, normalised to total GSK-3β | baseline: HIV-infected untreated mice, increase | protein level | 2.3 fold |

Repeated from above:
| Molecule | tested on | test | system | setting | how to read | measurement | result |
| --- | --- | --- | --- | --- | --- | --- | --- |
| semaglutide |  |  | Wistar rat, male, diet-induced obese | subcutaneous, increasing doses once daily, 45 days | baseline: vehicle | body weight reduction | -14.7% |
